Measurements collected from several papers.
Parts stem from different laboratories: compare values within a part only. “And” joins repeats or separate records; there may be more than shown.
Sequence of UniProt P61075 (whole entry, looked up): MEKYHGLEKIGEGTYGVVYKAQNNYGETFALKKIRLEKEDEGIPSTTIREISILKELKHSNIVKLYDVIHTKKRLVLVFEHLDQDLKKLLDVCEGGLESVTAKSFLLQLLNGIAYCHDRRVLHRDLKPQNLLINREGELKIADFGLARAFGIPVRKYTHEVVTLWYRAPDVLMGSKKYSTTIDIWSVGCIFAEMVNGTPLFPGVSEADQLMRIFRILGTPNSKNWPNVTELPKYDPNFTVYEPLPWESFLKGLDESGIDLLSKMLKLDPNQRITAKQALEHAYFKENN
Sequence of UniProt P50406 (whole entry, looked up): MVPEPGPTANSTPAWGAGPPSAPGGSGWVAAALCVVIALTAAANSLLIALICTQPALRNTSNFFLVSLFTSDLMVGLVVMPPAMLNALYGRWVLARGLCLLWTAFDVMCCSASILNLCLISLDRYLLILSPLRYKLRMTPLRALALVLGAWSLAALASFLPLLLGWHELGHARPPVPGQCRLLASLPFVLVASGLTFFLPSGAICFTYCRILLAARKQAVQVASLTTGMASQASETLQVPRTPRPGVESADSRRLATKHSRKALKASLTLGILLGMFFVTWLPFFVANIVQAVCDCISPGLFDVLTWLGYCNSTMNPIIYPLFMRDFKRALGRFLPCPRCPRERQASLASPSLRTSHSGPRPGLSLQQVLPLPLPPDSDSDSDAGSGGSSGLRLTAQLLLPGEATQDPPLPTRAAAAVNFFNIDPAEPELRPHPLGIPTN

Series 1
Compound: Cc1ncsc1-c1ccc([C@H](C)NC(=O)[C@@H]2C[C@@H](O)CN2C(=O)[C@@H](NC(=O)CNC(=O)c2ccc(F)c(-c3ccc(N4C[C@@H](C)N(C)[C@@H](C)C4)c(NC(=O)c4c[nH]c(=O)cc4C(F)(F)F)c3)c2)C(C)(C)C)cc1
Cell line: MV4-11
Method: ATPlite
Time: 5 days
Baseline: DMSO
For 0.0147 µM: viability read 41.5% and 31.1% and 47.1% and 37%.
It gave 36.1% and 24.7% and 21% and 36.7% for viability (0.0341 µM).
It gave 84.6% and 80.1% and 96% and 107% for viability (0.0005 µM).
For 1 µM: viability read 4.72% and 5.8% and 6.89% and 5%.
0.43 µM — viability: 8.16% and 6.25% and 7.58% and 4.23%.

Series 2
Host: mouse
Matrix: microsomes or S9
Concentration: 2 µM
Time: 0.5 h
The remaining compound of O=S(=O)(CC1C(c2ccccc2)N1c1ccccc1)c1ccccc1 (centres unmarked) is reported as 0.285%.
For CC(C)CCC1(CN2CCCC2=O)C(=O)NC(=O)NC1=O, the remaining compound was 98.7%.
O=C1N=C(O)C(CCc2ccncc2)(Cc2ccc(OCc3ccccc3)cc2)C(=O)N1 (centres unmarked) has a remaining compound of 16.8%.
The remaining compound of CC(C)=CCN1CCCC(C(=O)c2nccn2C)C1 (centres unmarked) is reported as 45.7%.
For c1cc2c(cn1)CN(c1ncnc3sc4c(c13)CCCC4)C2, the remaining compound was 2.69%.

Series 3
Cell line: mouse MPNST tumor cells
Method: high-content immunofluorescence imaging
Item: nuclear SOX9
Concentration: 10 µM
Time: 12 h
Setting: mean of 2 replicates
Baseline: DMSO control
Direction: higher = more nuclear SOX9
CC[C@@H](C(N)=O)N1CCCC1=O: “nuclear SOX9 intensity” 106 % of DMSO and 85.1 % of DMSO and 99.1 % of DMSO.
CC(NC(C)(C)C)C(=O)c1cccc(Cl)c1 (centres unmarked): “nuclear SOX9 intensity” 96.9 % of DMSO and 95.4 % of DMSO.
CN1CCN(C(=O)O[C@H]2c3nccnc3C(=O)N2c2ccc(Cl)cn2)CC1 — result for “nuclear SOX9 intensity”: 101 % of DMSO.
Under “nuclear SOX9 intensity”, CC(C)C[C@H](CN)CC(=O)O is recorded as 100 % of DMSO.
COc1ccc(OC)c(C(O)C(C)N)c1 (centres unmarked) — result for “nuclear SOX9 intensity”: 99.7 % of DMSO.

Mixed results
With CNC(=O)c1cc(C(=O)NC2CC2)cn(Cc2ccccc2)c1=O the inhibition was 10.9% (HTR6 (Homo sapiens, UniProt P50406); binding, radioligand binding; 10 µM).
COc1cccc(CNC(=O)c2nc3scc(COCc4ccc(C(=O)O)cc4)c3c(=O)[nH]2)c1 has a remaining binding of 72.5% (CRK2 (Plasmodium falciparum, UniProt P61075); cell-free assay, competition with immobilised ligand; 1 µM).

For quick reference, copied from above (series 2):
For CC(C)CCC1(CN2CCCC2=O)C(=O)NC(=O)NC1=O, the remaining compound was 98.7%.
O=C1N=C(O)C(CCc2ccncc2)(Cc2ccc(OCc3ccccc3)cc2)C(=O)N1 (centres unmarked) has a remaining compound of 16.8%.
The remaining compound of CC(C)=CCN1CCCC(C(=O)c2nccn2C)C1 (centres unmarked) is reported as 45.7%.
